# Experimental data collected from several papers.
# A part holds a random share of what one study measured. Substitutions count along the parent as printed.

# Series 1
# Target: Histone acetyltransferase KAT6A, both winged helices, GST fusion (KAT6A, Homo sapiens, UniProt Q92794, residues 1-181)
# Method: protein binding microarray
# Molecule type: double-stranded DNA, one strand shown
# Matrix: in vitro
# Tested at: not given
# Notes: 8-mer, flanks averaged, mean of 2 arrays, mostly near background
# Relative to: not given
# Direction: higher = stronger binding
# Construct (chain): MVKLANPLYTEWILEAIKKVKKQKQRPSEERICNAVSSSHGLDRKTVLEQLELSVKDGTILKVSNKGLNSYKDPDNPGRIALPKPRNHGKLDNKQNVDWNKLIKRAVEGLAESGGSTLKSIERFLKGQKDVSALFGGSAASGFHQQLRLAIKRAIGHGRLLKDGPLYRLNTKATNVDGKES
Sequence,E-score
AGGATCCC,-0.0844
TATACAGA,-0.104
CTTTTGGC,-0.011
ACATAGTC,0.0306
CCACTTCG,-0.00593
AATTTGAC,-0.0669
GCCGTAAA,0.311
GTCCCCCA,-0.237
CAACCCCA,-0.145
GGTAGTCA,-0.0764
GCCCGTAA,0.239
GAGCTTCA,-0.0021
ATCGCGAT,0.217
TCGGTAAA,0.0231
AAGTGTGT,-0.127
AGTATTCA,-0.0282
ATTGTTTG,0.00464
ACTCACGG,0.176
AAGTCGCT,-0.0146
CCCTCACG,-0.0147
GTGAAGGA,-0.0153
CCCAATCG,-0.0344
GCGTTATA,0.0319
AGCGGTCA,0.234
CAAGTTGC,0.0428

# Series 2
# Target: CCND3, cyclin fold, Cln2 fusion (human)
# Method: yeast growth competition, sequencing
# Matrix: yeast
# Notes: weak parent motif
# Relative to: not given
# Direction: higher = stronger binding
# Starting sequence: WEE1 docking peptide (human); CTLRQKLIFSPCS; partner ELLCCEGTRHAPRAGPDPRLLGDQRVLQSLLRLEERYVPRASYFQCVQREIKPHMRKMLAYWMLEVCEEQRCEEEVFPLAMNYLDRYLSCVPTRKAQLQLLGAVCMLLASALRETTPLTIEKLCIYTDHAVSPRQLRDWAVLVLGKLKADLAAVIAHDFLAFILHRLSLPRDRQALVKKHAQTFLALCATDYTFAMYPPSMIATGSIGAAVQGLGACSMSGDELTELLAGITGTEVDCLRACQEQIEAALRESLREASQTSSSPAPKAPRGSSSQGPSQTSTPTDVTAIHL
Substitution,normalised enrichment score
T2A,-0.036
S13A,0.016
L7A,0.11
S10A,0.278
Q5A,0.0978
C12A,0.68
I8A,-0.0645

# Series 3
# Target: CRIPT, C-terminal peptide
# Method: DHFR complementation, deep sequencing
# Matrix: yeast
# Notes: single substitutions, model-inferred values
# Relative to: wild type
# Direction: higher = weaker binding
# Starting sequence: ERBIN, PDZ domain 1 (human); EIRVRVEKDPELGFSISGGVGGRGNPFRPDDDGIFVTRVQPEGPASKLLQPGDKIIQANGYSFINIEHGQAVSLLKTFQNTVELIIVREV; partner TKNYKQTSV
Substitution,binding free energy change [kcal/mol]
S17G,0.968
V6Y,1.81
Y61P,0.783
F14R,0.672
I55A,0.603
L49F,0.148
F14D,0.98
I55D,0.843
I85R,-0.0253
L84P,0.677
Q79H,0.13
G19I,1.73
E83G,0.166
G52W,0.903
I56E,0.192

# Series 4
# Target: ABI1, truncated, D143A, DHFR fusion (Arabidopsis thaliana)
# Method: DHFR PCA, deep sequencing
# Matrix: yeast
# Notes: methotrexate growth selection, single substitutions
# Together with: (+)-ABA 0 µM
# Relative to: wild-type fitted maximum
# Direction: higher = stronger binding
# Starting sequence: PYL1, truncated, DHFR fusion (Arabidopsis thaliana); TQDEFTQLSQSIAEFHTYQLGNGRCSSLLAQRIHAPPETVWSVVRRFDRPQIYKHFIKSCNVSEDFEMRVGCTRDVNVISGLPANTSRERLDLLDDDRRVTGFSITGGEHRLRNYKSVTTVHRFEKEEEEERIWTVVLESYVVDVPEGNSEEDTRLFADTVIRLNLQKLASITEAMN
Substitution,relative binding score [%]
R74F,0.937
D97V,24.3
T1I,30.3
E128Q,23.4
R88K,31.8
P36R,10.7
L169Q,5.68
R88G,-2.33
E4N,5.66
E4L,24.1
K168A,-12.5

# Series 5
# Target: Interferon regulatory factor 7, full length, phosphomimetic (IRF7, Homo sapiens, UniProt Q92985, residues 1-503, S101K/S471D/S472D/S475D/S476D/S477D/S483D/S484D/S487D)
# UniProt Q92985, sequence (whole entry, unmodified, looked up): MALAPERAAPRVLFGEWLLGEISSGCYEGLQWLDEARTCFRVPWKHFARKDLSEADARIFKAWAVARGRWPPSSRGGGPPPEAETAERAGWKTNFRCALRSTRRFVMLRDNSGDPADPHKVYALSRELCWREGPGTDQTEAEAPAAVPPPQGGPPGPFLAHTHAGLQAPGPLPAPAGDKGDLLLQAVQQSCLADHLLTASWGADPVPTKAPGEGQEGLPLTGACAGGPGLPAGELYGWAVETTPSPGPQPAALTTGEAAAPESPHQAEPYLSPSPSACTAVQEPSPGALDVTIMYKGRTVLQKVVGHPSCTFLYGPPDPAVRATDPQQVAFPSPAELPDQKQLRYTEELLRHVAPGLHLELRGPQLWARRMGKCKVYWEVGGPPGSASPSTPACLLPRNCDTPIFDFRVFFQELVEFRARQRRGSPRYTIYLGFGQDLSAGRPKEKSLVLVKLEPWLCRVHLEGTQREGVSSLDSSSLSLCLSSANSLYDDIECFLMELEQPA
# Method: protein-binding microarray
# Molecule type: double-stranded DNA, one strand shown
# Matrix: in vitro
# Tested at: 250 nM
# Notes: 60-bp whole probe
# Together with: salmon DNA 0.4 mg/ml
# Relative to: random background probes
# Direction: higher = stronger binding
# Constant ends, left off below: GCCTAGCAC … GTCTTGATTCGCTTGACGCTGCTG
Sequence,log fluorescence [z-score]
GACGGTATCGGGAATGGGGACGTGCTA,0.0634
TTATGACTGGGTCTCGGTTAGTGCTAG,0.749
TTAGGGTTCCTTTTCCTTTAGTGCTAG,1.93
ACCTGAGTCCCTATCTCCTCGTGCTAG,-0.15
GACGGTTTCCTTATTCTGACGTGCTAG,2.97
TCAAGTCTCAAAATTAGACTGTGCTAG,0.176
TTAGCACTGGGTATCGGTTAGTGCTAG,0.57
GACGATTTCGGTTCCGGGACGTGCTAG,2.89
TCATCTAACCTCTCTAATACTGTGCTA,0.333
TATAATATATATTCATATATGTGCTAG,1.08
GAAGGTATCGACACTGGGGACGTGCTA,-0.362
TTAGCTATCGGGTTTCGGTTAGTGCTA,5.36
TTAGAACTGGGGTTTCGATAAGTGCTA,2.01
TTAGGTATCGACTATCGGTAAGTGCTA,0.351
TTTTTTTTTTTTCTGATCCAGTGCTAG,0.998
GACGGTATCCTTCTGCTGACGTGCTAG,-0.241
GACGATCTCTGTCTCGAGACGTGCTAG,0.0595
TCATAAAACAACTTTCAAACTGTGCTA,-0.037

# Series 6
# Target: RNA binding protein fox-1 homolog 2, RRM domain, GST-SBP tag (RBFOX2, Homo sapiens, UniProt O43251-10, residues 100-194)
# Method: RNA Bind-n-Seq
# Molecule type: RNA
# Matrix: in vitro
# Tested at: 365 nM
# Notes: natural RNA segment, single round, ends assumed
# Relative to: no-protein control
# Direction: higher = stronger binding
# Constant ends, left off below: GGGAGUUCUACAGUCCGACGAUC … UGGAAUUCUCGGGUGCCAA
# Target sequence (chain): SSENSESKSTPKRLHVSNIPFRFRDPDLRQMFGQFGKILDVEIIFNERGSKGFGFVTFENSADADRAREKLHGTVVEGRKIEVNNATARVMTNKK
Sequence,RBNS enrichment (R)
AUAGAUCUAAUCAAAUAUGUUGAUUCAUGGCUAUAAUAAAGCAGGAGCAAUUAUAAAAUCUUCAAUCAAUUGAACUUUUACAAAACCACUUGAGAAUUUCAUGAGCACUU,0.737
UGCGGUUGGUCAUACUGAAGGGAAUUGAUGGCAAGAGGAUCCCCUGAGCAAGUCAGAAGUUACUCUCAUCAGUCGUUCAUGGUCACAACCUGAGGUACUCUGCUGAGUGG,0.291
UCUCCCAAAGAACUCUACGUUAAACAUACACCAGUUUUCUUUUAUGACCUGGAGUUAGGAGUGAGUUUGUGUGUUGUUGAUAGAGCAACUCAGGUAAUUUCCAUUUCUGG,0.464
CCCAAAAGUGUCCUCGGCAUGGAUCUUGAACAGAACCAGUAUCUGUCAUGGAACUGAACAUUCAUCGAUGGUCUCCAUGUAUUCAUUUAUUCACUUGUUCAUUCAAGUAU,0.262
AAGAUAGGUUGUAAACUGAAUGCUGUGAUAAUACUCUGUAUUCUUUAUGGAAAAUGUUGUCCUGUACUUACUAGGCAAAACGUAUGAAUCGGAUUAACUGGAAAAUAUAU,0.352
UGUGUGGCGGUAGCCCAUGUGCCUUUACCUAAUGUCAGAUUUGCAAGCGUUUCGUCUGUCUUUAUGUUAGGGGGUCUUAGGAACUUCAGAGAGAGAACUGAUAACUGGUU,0.898
AGAAAUAAUCUGUCUUUAGUAUACAGAAUGGUUCUUUGUUUGCCUGAAAAGUAUAAGAAUACAAUUUACUUUUCCCAAACUCUUUUUCCUUAUUUUUUUCUUUCAAAUAA,0.665
CCUAUGGAAUUGUUUUUAAUCAUCAAAUUUAACCAUUUUCAUAACUGGUUCCUGGAGGUGUGCAGUGCCCCCUUGCCUCUUCAAACCUACAGCUUCUCUUUGCCAUUUGU,0.59
UGCAGCCGAGGGGUAAAGAGCCCUCUGGUUCAUUGCCUGAUCGGCUUUGAGAGAGGGUUUGGAGGGCAAGGGGCUGCAUUCCUCUGAGGGACUUGGCCUGAGGCCUUUCG,0.372
CCCCUUGUUGGACACACUGCCUUUCUCCUCCUCCUUUGCCGCUGGCAAGAGCCAGUGCCUGACUGAGGCCUUCCUGUGUUGUGGCCUUCCCCCUCCAUCACCCCCAAGAC,0.589
CUAUAUUUUCUGGGACUGGAAGGAAUGAAUGCCCAUGUCCUGUCUACUUCUGUGUCUGUGCUAUGUGGGGGUGCAACUUCUGCCUGGUGGUUUGUGACAUGGCAGAUCAG,13.6
CAGGGGUUUUAGCUCUGUUCUCUGCUCCCAUCCUUCGCUCACCAGCUGAGUGAGAACAUGAACUUUUUGCACCAUGUACCCAUGGCUUACACUACUUAGAAAAUCACCUU,0.424

# Repeated from above (series 4):
Substitution,relative binding score [%]
R74F,0.937
D97V,24.3
T1I,30.3
E128Q,23.4
R88K,31.8
P36R,10.7
L169Q,5.68
R88G,-2.33
E4N,5.66
E4L,24.1
